Results gathered from unrelated publications.
Parts stem from different laboratories: compare values within a part only. Changes are numbered by the printed parent chain.

Block 1
Target: Centromere-binding protein 1, full length, His-tagged (CBF1, Saccharomyces cerevisiae, UniProt P17106, residues 1-351)
Chain of UniProt P17106 (whole entry, looked up): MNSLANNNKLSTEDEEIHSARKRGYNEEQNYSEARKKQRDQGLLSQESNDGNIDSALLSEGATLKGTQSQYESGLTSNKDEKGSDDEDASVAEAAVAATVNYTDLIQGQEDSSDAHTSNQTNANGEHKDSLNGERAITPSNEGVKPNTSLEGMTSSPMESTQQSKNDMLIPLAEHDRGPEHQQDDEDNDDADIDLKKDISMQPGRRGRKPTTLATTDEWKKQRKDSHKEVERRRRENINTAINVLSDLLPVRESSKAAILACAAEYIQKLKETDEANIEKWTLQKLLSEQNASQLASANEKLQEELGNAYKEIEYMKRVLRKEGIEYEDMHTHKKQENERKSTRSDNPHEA
Technique: competition protein-binding microarray
Form: double-stranded DNA, one strand shown
Matrix: in vitro
Tested at: 2 µM
Notes: whole 60-bp probe, lowest competitor level
Added: Pho4 competitor, 0.05 µM
Direction: higher = stronger binding
| Strand | fluorescence intensity |
| --- | --- |
| CCTGCCGAAACGAGTCACGGCGATGAACAAAATAGGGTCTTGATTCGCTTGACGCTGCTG | 146 a.u. |
| CATGTTTCGATGTTACACGTGGAACAAGAGTTAAGAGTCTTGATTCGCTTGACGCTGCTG | 1100 a.u. |
| CGGGGTTAAGTTTTTCACGTGGTTTGCTTGCAGCAGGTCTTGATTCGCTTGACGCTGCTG | 970 a.u. |
| AGAATGCCACCAGACTTCATGACAGAAAAAGCTGCCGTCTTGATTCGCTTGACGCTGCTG | 70.6 a.u. |
| TGTTGAAGACCTCACTTCGTGACGGTTCGGCTTCGAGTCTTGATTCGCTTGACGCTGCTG | 65.9 a.u. |
| CCGACTGCGCAGCCCAACGTGCGGATAATTGGAGACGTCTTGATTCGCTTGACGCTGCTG | 92 a.u. |
| AGAATAATGTAAGGTACCGTGGGTACCGTACCATCAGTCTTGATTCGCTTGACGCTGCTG | 54 a.u. |
| CGGGGTTAAGTTTGCAGTGTGGGTGGCTTGCAGCAGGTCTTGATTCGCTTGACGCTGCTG | 79.6 a.u. |
| AAGGTAAGCTATCACCACGTGTTGGTGATTTAAGTTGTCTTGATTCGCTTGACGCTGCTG | 1130 a.u. |
| ACAAAAGCCTGAATTGACATGACAACGACAATAGGGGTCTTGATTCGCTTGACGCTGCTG | 73 a.u. |
| AAGCTAAAGCAGAGGAACGTGACGGACGCGCATTAAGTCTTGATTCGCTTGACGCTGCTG | 264 a.u. |
| AAATTACTAAGTTGGCCTGTGGGTGACGCCGTATGAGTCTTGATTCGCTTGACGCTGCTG | 63.7 a.u. |
| CGTCCTAGTGATTTTCACGTGACCTCCATGAGGAAGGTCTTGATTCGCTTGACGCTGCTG | 8740 a.u. |
| CCGTATCTAGTATCGCACGCTCTTTTGCAAAAATATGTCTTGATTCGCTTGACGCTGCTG | 138 a.u. |
| GCCCTCAAAAAACACAACGTGCGGATAACGACAACGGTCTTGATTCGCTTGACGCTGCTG | 138 a.u. |
| ATCAAGGTGCCTTGCCACCTGATCTATCTTTGATCGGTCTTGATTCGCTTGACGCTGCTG | 188 a.u. |
| TGACAGTAATCTTTTCACGTGTGGATGGACAGACTCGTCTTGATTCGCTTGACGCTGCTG | 622 a.u. |
| CGCGCAAGTGTTCACCACGTAATCGCATCGCCCCTCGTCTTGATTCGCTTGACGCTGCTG | 62.2 a.u. |
| CAATGAATATACTGCAACGTGCCGATTGAATCCTATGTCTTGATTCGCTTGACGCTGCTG | 182 a.u. |

Block 2
Target: Interferon regulatory factor 7, full length, phosphomimetic (IRF7, Homo sapiens, UniProt Q92985, residues 1-503, S471D/S472D/S475D/S476D/S477D/S483D/S484D/S487D)
Technique: protein-binding microarray
Form: double-stranded DNA, one strand shown
Matrix: in vitro
Tested at: 2200 nM top
Notes: 60-bp whole probe
Added: salmon DNA 0.4 mg/ml
Reference: random background probes
Direction: higher = stronger binding
Constant ends, left off below: GCCTAGCAC … GTCTTGATTCGCTTGACGCTGCTG
Target sequence (chain): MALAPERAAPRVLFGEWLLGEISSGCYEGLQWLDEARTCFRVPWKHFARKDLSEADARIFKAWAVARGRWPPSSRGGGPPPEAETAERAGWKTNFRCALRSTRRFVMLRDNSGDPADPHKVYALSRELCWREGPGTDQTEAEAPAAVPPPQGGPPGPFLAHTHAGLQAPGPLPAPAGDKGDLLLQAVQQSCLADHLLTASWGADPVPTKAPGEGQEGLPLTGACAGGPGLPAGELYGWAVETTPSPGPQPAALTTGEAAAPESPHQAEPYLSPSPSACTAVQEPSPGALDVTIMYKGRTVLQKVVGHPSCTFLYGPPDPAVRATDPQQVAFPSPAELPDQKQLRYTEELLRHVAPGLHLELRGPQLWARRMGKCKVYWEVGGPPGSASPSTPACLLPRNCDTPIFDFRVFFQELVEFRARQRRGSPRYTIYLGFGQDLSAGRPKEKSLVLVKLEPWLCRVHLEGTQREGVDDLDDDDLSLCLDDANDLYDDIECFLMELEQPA
| Strand | fitted relative affinity |
| --- | --- |
| TGAGGTCTCGGTTTCGGTTAGTGCTAG | 6.42 z-score |
| GACGGACTAGGTTTCGGGACGTGCTAG | 1.93 z-score |
| AGCTCTTTCGTTACTTCCTCGTGCTAG | 3.63 z-score |
| TTACGTATCGGGACTGGGTTAGTGCTA | 1.23 z-score |
| GACGGTTTCGGGACTCGGGACGTGCTA | 4.8 z-score |
| TCTCCTCCCCCTCTGCCACCGTGCTAG | 0.431 z-score |
| TCCATGACCTACCCTGCGTTGTGCTAG | 0.63 z-score |
| GACGGTATCGGGTAACGGGACGTGCTA | -0.226 z-score |
| GAAGGTATCGGGACTGGGGACGTGCTA | -0.588 z-score |
| TAACTAATATTAAATATGTAGTGCTAG | -0.363 z-score |
| TTAGAACTGGGGTATCTATTAGTGCTA | 0.209 z-score |
| GACGATTTCAGTAACGAGACGTGCTAG | 0.332 z-score |
| TTAAGTATCGGGTTTCGGTTAGTGCTA | 4.24 z-score |
| TGGTATTTTTTTGTAATCGAGTGCTAG | 0.688 z-score |
| ACATTTTTTTCATTATTGTTGTGCTAG | 1.87 z-score |
| TCAGGTCTCGCTATGTTACTGTGCTAG | 1.19 z-score |
| GACGAACTGCGTCTCGAGACGTGCTAG | 0.113 z-score |
| TCATCTTTCCAACTCTGACTGTGCTAG | 2.16 z-score |
| TTAGGTCTCAGTTTCGATTAGTGCTAG | 5.65 z-score |

Block 3
Target: RNA binding protein fox-1 homolog 2, RRM domain, GST-SBP tag (RBFOX2, Homo sapiens, UniProt O43251-10, residues 100-194)
Technique: RNA Bind-n-Seq
Form: RNA
Matrix: in vitro
Tested at: 365 nM
Notes: natural RNA segment, single round, ends assumed
Reference: no-protein control
Direction: higher = stronger binding
Residues (chain): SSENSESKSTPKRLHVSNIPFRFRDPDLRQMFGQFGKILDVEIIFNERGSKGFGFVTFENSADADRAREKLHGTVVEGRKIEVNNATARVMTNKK
| Strand | RBNS enrichment (R) |
| --- | --- |
| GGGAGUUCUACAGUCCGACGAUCUGCAUCCUGCUGCCAAGGGUGGACACGGCUGCAGACUUCUGGGGGAAUUGUCGCCUCCUGCUCUUUUGUUACUGAGUGAGAUAAGGUUGUUCAAUAAAGACUUUUAUCCCUGGAAUUCUCGGGUGCCAA | 0.662 |
| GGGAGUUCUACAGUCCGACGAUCUUGCUUUGCUUAGUUGGCAAAAGCAGGAAAAGAGGUGACAGAGAAUGUUGACUCCAAGGUCCCUAGGAAAUCUCACGAUACACUGGCCGCUGGUUGGUACACUGAUUUCCUGGAAUUCUCGGGUGCCAA | 0.199 |
| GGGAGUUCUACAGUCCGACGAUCAAAAUGAAAGCCAAAUUUAUAUGCCACCGAUUGCAGGACACAAGCACAGUUUUAAGAGUUGUAUGAACAUGGAGAGGACUUUUGGUUUUUAUAUUUCUCGUAUUUAAUAUUGGAAUUCUCGGGUGCCAA | 0.732 |
| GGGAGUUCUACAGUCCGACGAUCUUAGUUCUUUUCUUCUGACUCGUGGGGCUCCCUGCUGCAGAGAGCACAGCCCUUGCCUGGAGCCCAGGAACCCCAUCCUUGCUUCAUCUCAGUUCUUCAUGGGCUUCACUUGGAAUUCUCGGGUGCCAA | 0.351 |
| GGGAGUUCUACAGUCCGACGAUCCUCACCCGUGUCCCCGCCCCGCCCCUCCGUCCACACUGGCCGGCACCCCCUGCUGGGUCUCCUGCAUUCCACGGAGCCCCUGCUGCCAGGGCGGUGUCUGAGCCUGCCGGUGGAAUUCUCGGGUGCCAA | 0.53 |
| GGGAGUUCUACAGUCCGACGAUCACUUUGCAAGGAGUCCAUUCAUGAGGGUGCUAUCACUCACACCUUCUGUGGCACCAUUGAGUACAGGGCCCCAGAGAUUCUAGUGCGCACUGGUCACAACCGGGCAGUGGUGGAAUUCUCGGGUGCCAA | 0.4 |
| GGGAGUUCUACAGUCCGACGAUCUACGCUUGGGGGCUGGGAUGCCGUGUACACACGCACAAGUACACAUCGCGCUCAGGACUUCACUGAAGAUUCACGUGCAAUUGAACGCUUCAUUAAACAAAAGAAAACCUUGGAAUUCUCGGGUGCCAA | 0.399 |
| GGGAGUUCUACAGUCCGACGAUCUCCUAUUCAAAUUUAUUUGACGUUUUAUUUUGGUUUUCCUCACCCCCUCAAACUGUCGGGGAGACCCUGCCCUUCACCUAGCUCCCUUGGCCAGGAAUGAGGGAGCCAUGUGGAAUUCUCGGGUGCCAA | 0.99 |

Block 4
Target: CCND1, cyclin fold, Cln2 fusion (human)
Technique: yeast growth competition, sequencing
Matrix: yeast
Notes: strong parent motif
Reference: not given
Direction: higher = stronger binding
Parent: E2F1 docking peptide (human); PPVKRRLDFETDH
| Substitution | normalised enrichment score |
| --- | --- |
| PPVKRRLDFETHH [D12H] | 2.71 |
| PPLKRRLDFETDH [V3L] | 0.917 |
| PPVKRRLDFETKH [D12K] | 2.35 |
| PPEKRRLDFETDH [V3E] | 0.403 |
| PPVLRRLDFETDH [K4L] | 0.482 |
| PPVMRRLDFETDH [K4M] | 2.96 |
| PPVKRRLDDETDH [F9D] | -0.18 |
| PPVKRRLDFETEH [D12E] | 3.16 |
| PPVKRRLDFETRH [D12R] | 2.05 |
| PPVFRRLDFETDH [K4F] | 1.28 |
| PPVKRRLDFESDH [T11S] | 3.51 |
| PPVKRRLDCETDH [F9C] | 0.065 |
| PPVKRRLMFETDH [D8M] | 1.76 |
| PFVKRRLDFETDH [P2F] | 0.757 |
| PDVKRRLDFETDH [P2D] | 2.02 |

For quick reference, copied from above (block 4):
| Substitution | normalised enrichment score |
| --- | --- |
| PPLKRRLDFETDH [V3L] | 0.917 |
| PPVKRRLDFETKH [D12K] | 2.35 |
| PPEKRRLDFETDH [V3E] | 0.403 |
| PPVLRRLDFETDH [K4L] | 0.482 |
| PPVMRRLDFETDH [K4M] | 2.96 |
| PPVKRRLDDETDH [F9D] | -0.18 |
| PPVKRRLDFETEH [D12E] | 3.16 |
| PPVKRRLDFETRH [D12R] | 2.05 |
| PPVFRRLDFETDH [K4F] | 1.28 |
